# Published values collected from several papers.
# Numbered parts are unrelated; each lists some results of a single study. Substitutions count along the parent as printed.

# Block 1
# Target: RING finger protein unkempt homolog, zinc fingers 1-6, GST-SBP tag (UNK, Homo sapiens, UniProt Q9C0B0, residues 30-357)
# Technique: RNA Bind-n-Seq
# Molecule type: RNA
# Medium: in vitro
# Tested at: not given
# Setting: RNA with constant flanks, human and mouse sites, ends assumed
# Baseline: input RNA pool
# Direction: higher = stronger binding
# Shared flanks, not repeated: GGGAGUUCUACAGUCCGACGAUC … CAACAGAGGAUUGAGCAUCA
# Target sequence (chain): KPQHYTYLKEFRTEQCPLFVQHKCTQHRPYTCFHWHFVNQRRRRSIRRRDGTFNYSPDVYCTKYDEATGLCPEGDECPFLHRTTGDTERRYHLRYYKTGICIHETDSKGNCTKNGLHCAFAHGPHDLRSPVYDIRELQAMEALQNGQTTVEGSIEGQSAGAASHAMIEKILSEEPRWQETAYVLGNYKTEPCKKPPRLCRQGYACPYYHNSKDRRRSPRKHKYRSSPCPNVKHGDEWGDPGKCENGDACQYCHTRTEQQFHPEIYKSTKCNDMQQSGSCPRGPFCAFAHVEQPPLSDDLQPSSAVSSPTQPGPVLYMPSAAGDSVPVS
Sequence,bound/input enrichment [ratio]
GACUCAGUUUCUAAGGGAAGACAGAAUUCAACUUUGGAAACCUCCAUAUACUAAAGAAAAUAAGGAAGUUGGUUUGGCCGUAAAGGACCUUGCUAAGAAGUACUCUGAGCGGCUGGAGUG,0.878
UUCAAAAUGAAAAUUGAAUACUGGCACUCCAUCUCUUAGAACAUAUGAAUUCUAGUGUUCAAUAUUCAUUAUUGGUUGUUUUUGUUGUGCUGAUUUUUGGUGAUCAGACCUCAGCUCCCU,4.19
AUUUCCAUGGGACUUACAAGGAGCAUGCAGAUUGUCCCUUUAGACAAGCAGAUCACAAUCAUAGACAGUCCAUGCCUAAUUAUCUCACCUUGUAACUCCCCCACUGCACUUGCCCUUCGG,0.269
GUGCUCCCCCGGGAUCUCUUCCAAAAGCUCUUCAGACAGGACUUGCUGGUGGCUAGUCUGUUUCGAAAUUUUUUAUUGGCGGAAAGGAUUAUGAGGUCGUAUAACUGCACUCCCGUCAGC,0.294
UCUAGUCGGGCACAGCAAAUGCAUGCCUUUUCCUGGAUUCGAAAUACCUUAGAGGAGCAUCCUGAGACGUCACUCCCCAAACAGGAAGUCUAUGAUGAAUACAAGAGCUACUGCGACAAU,0.207
AAGAACAAACAGAAAGAGGAUGUUGACAAGAUGGAGAAUUCUGAAAUGAUAAAGACCAUGAAAAAAAAACUACAGACGGAGAUAAAGAUCACUACAGUUGUUCAACAUACAUUCCAGGGC,0.181
GUGUGCAAAAGCAAGAAGUCUUGGCAAGCGAGGCACACUGGUAUUAAGAUUGUACAACAGAUAGCCAUUCUCAUGGGCUGUGCUAUCUUGCCACAUCUCAGAAGUUUGGUUGAAAUCAUU,0.0868
GCCAGAGAGGACGUUUCCAACUCAAAAAUGCAGGCUCAACAGUACCAGCAGCAGCGUCGAAAAUUUGCAGCUGCCUUCUUGGCAUUCAUUUUCAUACUGGCAGCUGUGGAUACUGCUGAA,0.163

# Block 2
# Target: CCNB1, cyclin fold, Cln2 fusion (human)
# Technique: yeast growth competition, sequencing
# Medium: yeast
# Setting: weak parent motif
# Baseline: not given
# Direction: higher = stronger binding
# Parent: SAMHD1 docking peptide (human); ASKSRVQLFKDDP
Substitution,normalised enrichment score
L8Q,-0.0366
K3L,0.396
V6E,-0.254
S4I,1.94
F9I,0.65
K3G,0.303
L8V,0.0814

# Block 3
# Target: RNA binding protein fox-1 homolog 2, RRM domain, GST-SBP tag (RBFOX2, Homo sapiens, UniProt O43251-10, residues 100-194)
# Technique: RNA Bind-n-Seq
# Molecule type: RNA
# Medium: in vitro
# Tested at: 365 nM
# Setting: natural RNA segment, single round, ends assumed
# Baseline: no-protein control
# Direction: higher = stronger binding
# Shared flanks, not repeated: GGGAGUUCUACAGUCCGACGAUC … UGGAAUUCUCGGGUGCCAA
# Construct (chain): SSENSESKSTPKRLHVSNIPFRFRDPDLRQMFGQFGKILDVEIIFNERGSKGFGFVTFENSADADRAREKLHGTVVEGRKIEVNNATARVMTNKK
Sequence,RBNS enrichment (R)
CUUCUCCUUACUUCUUAUCCCCAACUCCCUACCCACCCCUCUUCAGUUUUCAGAUUGGAGAUUCAAGAUUUGUUCCACUUUACAAGCAAGAGGAAAAAAAAGCAACCUUC,0.781
UCCUAAGAGCCCACCUGGAAGUCCACGUAUGCUAGAACUCUGGGCAGGGCCUAAUCUAGCUGAGGUCCAGAAAUACAAACCUGGAACUUCAUAUGGACCAAGUGGCCACA,0.287
UCUUUCAUAGAUAGCCAUUACAUUUCUUUAAAUUUUUCAAUGCCGAUGUGUAUUCUAUAAGAGAAUAGCUUCCUAAUUAAGUCGGUUUAGAAGAAGGUGCUGGUGUCACA,0.463
ACUCAGGACUGCUCCUGGAAGACAUCUCAAGGUGGGAAGCCUGGCUUUCCUGGGCUUUGCUUUCUUAACUCCCACCAUCCAGGCCUCCUCUAGAGUCCACUGAGUCACAA,0.173
UGGACAUAAGUCUAGGUGUAGAAAUCCUUUCCUUUAUCAUAGAGGAUAUGGUUUACAUUACCGUUUGUUUUCAUUGUGAUUGCCCCUAUGUAACAAUCAUGAAUAUUAGA,0.413
CCACAGUUAAUUCCCGGCAGAUUCUUUGGCUGUGUUUUAUCUUUAAUGAACGUUUCUGACUAAUAUUUUGUUGUAAACCAUUAAGUAAUGUAACGCAUGUAAGAUGCUUA,1.54
ACCUUAGCAUAAAGGUUUUGGGGAAGGAGGCCGUAGGCCGGCCCGGAGGAAGCAAUUCCACUUGGUUUGACAACUUCUGCCACUCCCAUGUCAGAUGACUUGCACUUCUU,0.269
AAAUGUCAUCACACUGGAAAUUGUACUAUAUGUAAAAAAAAAAAAAAGUAUAGUUUUAUAUUUGAAAUGUAUGCAAAUUAUGGCCAUAUGGCUGAUUGGAAUGUACUACU,0.414

# Other studies, line by line
Molecule,target,assay,system,conditions,how to read,measurement,value
"PhoQ, residues 284 288 289 292 302 303 SVHLDV","PhoP, residues 12 14 15 18 19 TPLRH (Escherichia coli, UniProt P23836)","Sort-seq, item: YFP reporter",E. coli,"PhoQ-PhoP variant library, together with: 10 µM Mg2+","baseline: high Mg2+ state, higher = stronger signaling",fold induction,0.787

# A few entries again (block 1):
Sequence,bound/input enrichment [ratio]
UCUAGUCGGGCACAGCAAAUGCAUGCCUUUUCCUGGAUUCGAAAUACCUUAGAGGAGCAUCCUGAGACGUCACUCCCCAAACAGGAAGUCUAUGAUGAAUACAAGAGCUACUGCGACAAU,0.207
AAGAACAAACAGAAAGAGGAUGUUGACAAGAUGGAGAAUUCUGAAAUGAUAAAGACCAUGAAAAAAAAACUACAGACGGAGAUAAAGAUCACUACAGUUGUUCAACAUACAUUCCAGGGC,0.181
